Measurements pooled from the literature.
Every numbered part comes from another study and shows a few of its results, in no order. Changes are numbered by the printed parent chain.

Sample 1
Target: Myc proto-oncogene protein, bHLH-zipper, MAX partner unstated (MYC, Homo sapiens, UniProt P01106, residues 368-449)
UniProt P01106, sequence (368-449, looked up): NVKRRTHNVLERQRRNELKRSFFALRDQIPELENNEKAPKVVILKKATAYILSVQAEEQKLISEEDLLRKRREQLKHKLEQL
Technique: protein-binding microarray
Form: double-stranded DNA, one strand shown
Sample: in vitro
Tested at: not given
Notes: k-mer, scored over probes, only values ≥0.25
Reading: higher = stronger binding
Oligonucleotide | E-score
CCCCGCCC | 0.318
CACGTGAG | 0.473
ACAATGCG | 0.256
ACCACGAG | 0.438
CGCGTGCA | 0.457
AGCATGGG | 0.385
GGTGTGCA | 0.306
CACGAGAG | 0.291
ATGGCCCC | 0.291
CGCGCTGC | 0.279
CCTCCACG | 0.329
CGCCATGC | 0.435
ACACGACC | 0.29
CAAGCATG | 0.38
ACTACACG | 0.316
ACCTGCGT | 0.252
ACGACGTG | 0.379
ATCGTGCA | 0.265
ATGCCCCC | 0.276
ACGCGTCT | 0.309
GACAACGC | 0.279
CATGAGGA | 0.387
CGAGGGGA | 0.297
CGTCATGC | 0.287
ACCGCCCC | 0.264

Sample 2
Target: Prothrombin, mature alpha-thrombin (F2, Homo sapiens, UniProt P00734)
Technique: aptamer microarray, sandwich
Form: DNA with 2'F-ANA
Sample: in vitro
Tested at: 200 nM
Notes: whole 15-mer aptamer, many near background
Added: Cy3 exosite-II aptamer, 400 nM
Reading: higher = stronger binding
Oligonucleotide: GGTTGGTGTGGTTGG
Modification | mean fluorescence intensity
2'F-ANA at 1 4 6 7 9 10 11 12 14 | 50.6 a.u.
2'F-ANA at 1 2 3 6 9 10 11 13 14 | 71.1 a.u.
2'F-ANA at 1 3 4 8 9 12 14 | 95.4 a.u.
2'F-ANA at 4 5 10 15 | 46.8 a.u.
2'F-ANA at 2 4 5 8 9 10 11 12 15 | 84.8 a.u.
2'F-ANA at 1 3 4 5 7 9 11 12 13 14 | 49.9 a.u.
2'F-ANA at 1 3 4 6 8 14 15 | 70 a.u.
2'F-ANA at 2 4 13 | 232 a.u.
2'F-ANA at 2 5 9 11 12 | 129 a.u.
2'F-ANA at 1 2 4 6 7 8 9 10 11 | 51 a.u.
2'F-ANA at 1 2 3 5 6 8 9 10 11 14 | 47.9 a.u.
2'F-ANA at 2 4 13 14 | 106 a.u.
2'F-ANA at 1 2 4 8 11 12 13 14 15 | 62.6 a.u.
2'F-ANA at 1 3 6 | 307 a.u.
2'F-ANA at 1 5 6 10 15 | 47.3 a.u.
2'F-ANA at 6 8 11 12 | 772 a.u.
2'F-ANA at 4 7 8 10 12 13 14 15 | 63.9 a.u.
2'F-ANA at 3 5 6 7 8 9 10 11 12 13 14 15 | 51.8 a.u.
2'F-ANA at 1 3 4 5 7 9 10 15 | 45.5 a.u.
2'F-ANA at 2 3 5 9 12 13 15 | 129 a.u.
2'F-ANA at 3 4 5 6 7 9 10 14 | 51 a.u.
2'F-ANA at 2 4 5 6 7 9 11 13 15 | 52.1 a.u.
2'F-ANA at 3 5 6 7 8 12 13 | 212 a.u.
2'F-ANA at 1 2 6 7 10 13 | 50.7 a.u.

Sample 3
Target: ABI1, truncated, D143A, DHFR fusion (Arabidopsis thaliana)
Technique: DHFR PCA, deep sequencing
Sample: yeast
Notes: methotrexate growth selection, single substitutions
Added: (+)-ABA 4.8 µM
Baseline: wild-type fitted maximum
Reading: higher = stronger binding
Parent: PYL1, truncated, DHFR fusion (Arabidopsis thaliana); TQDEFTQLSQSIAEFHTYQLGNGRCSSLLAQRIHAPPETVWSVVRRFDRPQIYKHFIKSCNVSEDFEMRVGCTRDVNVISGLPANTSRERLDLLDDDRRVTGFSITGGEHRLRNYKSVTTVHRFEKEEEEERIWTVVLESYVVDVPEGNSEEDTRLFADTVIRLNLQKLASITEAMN
Change | relative binding score [%]
V136W | 40
A175G | 83.2
S140M | -16.3
L28C | 42.2
S150T | 87.2
E130M | 62.2
R111I | -5.36
S59C | 55.8
H55G | 79
L164N | 40.3
L169A | -1.87
A84M | 32.4
D48R | -8.48
E139M | 28.2
R88M | 60.9
M68D | 9.27
I162P | 7.93

Sample 4
Target: Sal-like protein 4, full length isoform B (SALL4, Homo sapiens, UniProt Q9UJQ4-2, residues 1-616)
Technique: universal PBM
Form: double-stranded DNA, one strand shown
Sample: in vitro
Tested at: not given
Notes: 8-mer, flanks averaged, mean of replicates
Reading: higher = stronger binding
Oligonucleotide | E-score
GGACTGTA | 0.0906
CGGTTAGA | -0.159
CGTCGACG | -0.28
CTGAGCAA | -0.0705
CGCGTACG | 0.0487
GTTATTCA | 0.273
GCCCGGCA | -0.355
AGACTTTA | 0.0504
CAAGTAAA | 0.226
ACCGAATA | 0.154
GTGGTAGA | -0.175
CGTCCTAC | -0.188
ATAAACAT | 0.371
ACAGAAGC | 0.0387
AGCTACTG | -0.138
ACATCGGC | -0.138
CGTACGCC | -0.138
ACACAAGG | -0.105
CTGAATGC | -0.105
ACACCCAA | -0.0615
GGTTTCAC | -0.0393
CGCCTACC | -0.163
AAGTGAGG | -0.0629
AATCTCAA | 0.0715
CTTAACAA | 0.252

Sample 5
Target: Interferon regulatory factor 3, full length, phosphomimetic (IRF3, Homo sapiens, UniProt Q14653, residues 1-427, S386D/S396D/S398D/S402D/T404D/S405D)
Technique: protein-binding microarray
Form: double-stranded DNA, one strand shown
Sample: in vitro
Tested at: 2540 nM top
Notes: 60-bp whole probe
Added: salmon DNA 0.4 mg/ml
Baseline: random background probes
Reading: higher = stronger binding
All sequences stand within: GCCTAGCAC … GTCTTGATTCGCTTGACGCTGCTG
Construct (chain): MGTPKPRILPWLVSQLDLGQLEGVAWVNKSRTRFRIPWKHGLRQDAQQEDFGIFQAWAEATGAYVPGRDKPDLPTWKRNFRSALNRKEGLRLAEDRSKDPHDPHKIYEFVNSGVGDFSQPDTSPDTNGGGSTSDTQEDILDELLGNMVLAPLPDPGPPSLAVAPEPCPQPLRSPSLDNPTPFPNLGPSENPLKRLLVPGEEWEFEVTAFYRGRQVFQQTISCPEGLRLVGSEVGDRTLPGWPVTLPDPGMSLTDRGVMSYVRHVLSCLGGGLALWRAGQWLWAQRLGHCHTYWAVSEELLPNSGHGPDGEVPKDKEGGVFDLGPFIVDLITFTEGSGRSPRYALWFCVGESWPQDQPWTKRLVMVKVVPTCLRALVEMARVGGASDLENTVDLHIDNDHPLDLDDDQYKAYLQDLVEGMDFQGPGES
Oligonucleotide | fitted relative affinity
GAACATACTGATTTCCACTTGTGCTAG | 0.952 z-score
ACAGGTTCTCTTTTATTTTTGTGCTAG | 2.4 z-score
CTTGCTTTGTGCCTAGCCTTGTGCTAG | -0.383 z-score
TATGTTCCCTATTTAAGACCGTGCTAG | 3.54 z-score
TTAGATTTCAGACTGGAGTAGTGCTAG | 0.532 z-score
TTAGGTTTCGTACTGCTTTAGTGCTAG | 3.72 z-score
GACGGACTGGGGTTTAGGGACGTGCTA | -1.02 z-score
TCAGCTCCAGGTTCTCTGACTGTGCTA | -0.42 z-score
TTAGGTATCGGGTCTGGGTTAGTGCTA | 1.98 z-score
TCATTTTTGCTTACGATGCAGTGCTAG | 1.51 z-score
GACGATATCGGGTTTCGAGGCGTGCTA | 0.812 z-score
TTTGGTCTCCTTATCCTTTAGTGCTAG | 3.15 z-score
ATTTAAAACAACTTTCAAAGGGTGCTA | 0.603 z-score

Sample 6
Target: RING finger protein unkempt homolog, zinc fingers 1-6, GST-SBP tag (UNK, Homo sapiens, UniProt Q9C0B0, residues 30-357)
Technique: RNA Bind-n-Seq
Form: RNA
Sample: in vitro
Tested at: not given
Notes: RNA with constant flanks, human and mouse sites, ends assumed
Baseline: input RNA pool
Reading: higher = stronger binding
All sequences stand within: GGGAGUUCUACAGUCCGACGAUC … CAACAGAGGAUUGAGCAUCA
Target sequence (chain): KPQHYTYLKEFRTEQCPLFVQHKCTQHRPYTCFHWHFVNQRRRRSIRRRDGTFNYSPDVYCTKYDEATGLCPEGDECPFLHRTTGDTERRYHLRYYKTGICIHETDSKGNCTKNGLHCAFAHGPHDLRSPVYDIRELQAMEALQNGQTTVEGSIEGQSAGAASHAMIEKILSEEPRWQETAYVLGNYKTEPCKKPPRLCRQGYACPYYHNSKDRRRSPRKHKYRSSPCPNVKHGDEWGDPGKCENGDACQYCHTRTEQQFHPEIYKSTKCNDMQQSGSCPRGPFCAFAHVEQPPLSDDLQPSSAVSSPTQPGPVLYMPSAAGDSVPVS
Oligonucleotide | bound/input enrichment [ratio]
GAAUACAUGUUACGACCACCACAACCUCCAGUGUACCUCUUUGUAUUUGAUGUAUCUCACAACGCAAUAGAAACUGGAUACUUGAAUUCAGUUUGCCAGAGUUUGUUAGACAAUCUGGAU | 0.141
GAUAUUCUAAGAUCACAGUGGUCUCCUGCUUUAACUAUUUCUAAAGUUCUUUUAUCCAUUUGUUCACUGCUAUGUGAUCCAAACCCAGACGACCCCCUAGUGCCAGAGAUUGCACGGAUC | 1.33
UGGUGGGGACUGAGUUCCCUGUUCAAACCGUUAUUGGGUACAGGAUUGAAUGUUUGAUUUUAGGUUUUAUUUUUCUUAUGAAUGUCCAGAUCUGUGUUUCCCUGCCCUCCCAGACUCUGG | 27.8
AUCAAAGUCCACGCCUGCGGUGUCAACCCAGUAGAGACAUACAUUCGCUCUGGGGCCUACAGUCGAAAACCUGCCCUACCCUACACUCCAGGCUCUGAUGUGGCUGGGAUCAUAGAAUCC | 0.195
AAUGACAUAAUCCUGUAUGCAAAAAUUGAAGGAAGAAAAGAGCAUAUAACACUGGAUACCCUUUCCUAUUCCUCAUAUAAGGUUCCGUCUUUGGUUUCUGUGGUCAUCAAUCCUGAACUU | 0.123
UUCUAUCGCGCCCUCUUGGCUGCUAGUUGUCGCGCUCUCCAUCUCACCAUGCUGUCUCUAGACUUUCUAGACGAUGUGCGGCGGAUGAACAAGAGGCAGCUGUACUACCAAGUCCUAAAU | 0.0973
CCUAAUGGUGCAACCUUGCUGGUUGGUGGUUUUGGGCUGUGUGGUAUUCCAGAGAAUCUUAUAGGAGCUUUACUGAAGACUGGAGUAAAAGAUCUAACUGCAGUCAGCAACAAUGCAGGG | 0.159
UUCACAAGAAUGUUUGCUGACCCUCAUGGCAAGAGAGUAUUCAGCAUGUUUUUGGAGACUCUAGUGGAUUUCAUACAAGUCCACAAAGAUGAUCUUCAAGAUUGGUUGUUUGUACUGCUG | 0.127
GAGGGAAACGCCUCCGUCUCUAUAUAAGGAAUUUUCCGGUCUCUUCGGGUCCUUUUUCCUCUCUUCAGCGUGGGGCGCCCACAAUUUGCGCGCUCUCUUUCUGCUGCUCCCCAGCUCUCG | 0.239
ACCUUGAUAUCCUCAGCCCAAAGGCGAUGCCCCCCUGCCACCUCCAAGCCUGGAAUUGUGCAUAACCCGGAUCUUGUAUCUUUGUAUAACGGAUGUUAUUUGUACGAAGGGCAGUUCGUA | 0.479
UAUCACAAUGUAUACUCUCGAGAUCCUAAUUAUCUGAAUUUGUUCAUUAUCGUAAUGGAGAAUAGAAAUCUCCACAGUCCUGAAUAUCUGGAAAUGGCUUUGCCAUUAUUUUGCAAAGCG | 0.239

Some of these lines once more (sample 4):
Oligonucleotide | E-score
CGTACGCC | -0.138
CTTAACAA | 0.252
CAAGTAAA | 0.226
GTGGTAGA | -0.175
AGCTACTG | -0.138
ACATCGGC | -0.138
AGACTTTA | 0.0504
GTTATTCA | 0.273
AATCTCAA | 0.0715
ACAGAAGC | 0.0387
GGACTGTA | 0.0906
CTGAATGC | -0.105
